Assay results of several laboratories.
± gives the spread as reported.

Compound = N#C[C@@H]1CCCN1C(=O)CNC(=O)c1ccnc2ccc(OCCCN3CCN(C(=O)CCc4ccc(O)c(CN5CCN6CC(=O)[O][Al-]([18F])([O]C(=O)C5)[O]c5ccc(CCC(=O)N7CCN(CCCOc8ccc9nccc(C(=O)NCC(=O)N%10CCC[C@H]%10C#N)c9c8)CC7)cc5C6)c4)CC3)cc12 (stereo partly drawn); test system = BALB/c nude mice, U-87 MG xenograft, liver; conditions = 1 h, blocking, together with: DOTA-FAPI-04 40 nmol/mouse co-injected; tissue uptake = 7.37 ± 1.11 %ID/g
Compound = CCCC[C@H](NC(=O)CCCCCCCNC(=O)CN1CCN(CC(=O)O)CCN(CC(=O)O)CC1)C(=O)N[C@H]1CC(=O)NCCCC[C@@H](C(N)=O)NC(=O)[C@H](Cc2c[nH]c3ccccc23)NC(=O)[C@H](CCCNC(=N)N)NC(=O)[C@@H](Cc2ccccc2)NC(=O)[C@H](Cc2c[nH]cn2)NC1=O [fluorine-18 labelled]; test system = C57 mice, B16/F10 melanoma, stomach; conditions = intravenous, 1 h, together with: NDP-MSH 10 µg; tissue uptake = 0.4 ± 0.11 %ID/g
Compound = N#C[C@@H]1CCCN1C(=O)CNC(=O)c1ccnc2ccc(OCCCN3CCN(C(=O)CCc4ccc5c(c4)CN4CCN(Cc6cc(CCC(=O)O)ccc6O)CC(=O)[O][Al-]([18F])([O]C(=O)C4)[O]5)CC3)cc12 (stereo partly drawn); test system = BALB/c nude mice, U-87 MG xenograft, lung; conditions = 1 h; tissue uptake = 1.87 ± 0.33 %ID/g
Compound = O=C(NCC1OC2CCC=CCCC2O1)c1ccc([18F])nc1 (stereo not drawn); test system = female BALB/c nude mice, LS174T tumour, tumor; conditions = intravenous, 60 min, together with: unmodified CC49 24 h before; tissue uptake = 0.8 ± 0.2 %ID/g
Compound = COc1ccc(Nc2nc(Nc3ccc(OCCOCC[18F])cc3)ncc2Br)cc1; test system = ICR mice, S180 tumour, lung; conditions = intravenous, 30 min, together with: PF-562271 33 mg/kg oral 1 h before; tissue uptake = 2.35 ± 0.23 %ID/g
Compound = Cc1cc(C)n(CCN(CCN)CCCCCCNC(=O)[C@@H](N)Cc2c[nH]cn2)n1.[99Tc+].[C-]#[O+].[C-]#[O+].[C-]#[O+]; test system = BALB/c nude mice, A549 xenograft, lung; conditions = intravenous, 24 h; tissue uptake = 0.39 ± 0.08 %IA/g
Compound = CCCC[C@H](NC(=O)COCCOCCNC(=O)CN1CCN(CC(=O)O)CCN(CC(=O)O)CC1)C(=O)N[C@H]1CC(=O)NCCCC[C@@H](C(N)=O)NC(=O)[C@H](Cc2c[nH]c3ccccc23)NC(=O)[C@H](CCCNC(=N)N)NC(=O)[C@@H](Cc2ccccc2)NC(=O)[C@H](Cc2c[nH]cn2)NC1=O [fluorine-18 labelled]; test system = C57 mice B16-F10 melanoma, skin; conditions = intravenous, 0.37 MBq, 2 h; tissue uptake = 0.3 ± 0.36 %ID/g
Compound = CCCC[C@H](NC(=O)CNC(=O)CNC(=O)[C@H](CCCCNC(=O)[C@H](CC(=O)O)NC(=O)C(C)c1ccc(CC(C)C)cc1)NC(=O)CN1CCN(CC(=O)O)CCN(CC(=O)O)CCN(CC(=O)O)CC1)C(=O)N[C@H]1CC(=O)NCCCC[C@@H](C(N)=O)NC(=O)[C@H](Cc2c[nH]c3ccccc23)NC(=O)[C@H](CCCNC(=N)N)NC(=O)[C@@H](Cc2ccccc2)NC(=O)[C@H](Cc2c[nH]cn2)NC1=O (stereo partly drawn) [lutetium-177 labelled]; test system = C57 mice, tumour-bearing, bone; conditions = intravenous, 0.037 MBq, 24 h; tissue uptake = 0.28 ± 0.09 %ID/g
Compound = CC(C)C[C@H](NC(=O)[C@@H](CCCCNC(=O)[C@@H](Cc1ccccc1)NC(=O)CCCCCCCNC(=O)CN1CCN(CC(=O)O)CCN(CC(=O)O)CCN(CC(=O)O)CC1)NC(=O)[C@H](Cc1ccc(O)cc1)NC(=O)[C@H](CO)NC(=O)[C@H](Cc1c[nH]c2ccccc12)NC(=O)[C@H](Cc1c[nH]cn1)NC(=O)[C@@H]1CCC(=O)N1)C(=O)N[C@@H](CCCNC(=N)N)C(=O)N1CCC[C@H]1C(=O)NCC(N)=O [indium-111 labelled]; test system = male athymic nude mice, DU-145 prostate cancer xenograft, blood; conditions = intravenous, 0.037 MBq, 1 h; tissue uptake = 0.58 ± 0.21 %ID/g
Compound = O=C(NCC1OC2CCC=CCCC2O1)c1ccc(COCCOCCOCC[18F])cc1 (stereo not drawn); test system = healthy female BALB/c nude mice, blood; conditions = intravenous, 7.4 MBq per mouse, 30 min; tissue uptake = 4.5 ± 0.4 %ID/g
Compound = COc1ccc(Nc2nc(Nc3ccc(OCCOCCOCC[18F])cc3)ncc2Br)cc1; test system = ICR mice, S180 tumour, intestine; conditions = intravenous, 370 kBq, 5 min; tissue uptake = 0.9 ± 0.06 %ID
Compound = O=C([O-])CN1CCN(CC(=O)[O-])CCN(CC(=O)NC[C@H]2CC[C@H](C(=O)N[C@H](Cc3cnc4ccccc4c3)C(=O)NCCCC[C@H](NC(=O)N[C@@H](CCC(=O)O)C(=O)O)C(=O)O)CC2)CCN(CC(=O)[O-])CC1.[64Cu+2]; test = ex vivo gamma counting; test system = 22Rv1 tumour-bearing mice, tumor; conditions = intravenous, 0.74 MBq, 2 h post-injection; tissue uptake = 14.9 %ID/g

Excerpt of the above:
Compound = Cc1cc(C)n(CCN(CCN)CCCCCCNC(=O)[C@@H](N)Cc2c[nH]cn2)n1.[99Tc+].[C-]#[O+].[C-]#[O+].[C-]#[O+]; test system = BALB/c nude mice, A549 xenograft, lung; conditions = intravenous, 24 h; tissue uptake = 0.39 ± 0.08 %IA/g
Compound = O=C(NCC1OC2CCC=CCCC2O1)c1ccc(COCCOCCOCC[18F])cc1 (stereo not drawn); test system = healthy female BALB/c nude mice, blood; conditions = intravenous, 7.4 MBq per mouse, 30 min; tissue uptake = 4.5 ± 0.4 %ID/g
